Experimental data of several laboratories.
Protocols differ between the studies behind these lines. “And” joins repeats or separate records; there may be more than shown. ± gives the spread as reported. Converted amounts (≈) assume the structure as drawn.

O=S(=O)(O)c1c2ccccc2c(-c2c3nc(c(-c4c5ccccc5c(S(=O)(=O)O)c5ccccc45)c4ccc([nH]4)c(-c4c5ccccc5c(S(=O)(=O)O)c5ccccc45)c4nc(c(-c5c6ccccc6c(S(=O)(=O)O)c6ccccc56)c5ccc2[nH]5)C=C4)C=C3)c2ccccc12  inhibition (vaccinia virus; viral replication; CV-1, WR; 25 µg/mL, 16 h): 81%
COc1ccc(C2=[N+]([O-])c3ccccc3N3CCN=C23)cc1  MIC90 (Clostridium perfringens): 1 µg/mL (≈ 3.41 µM)
CC[C@H](C)[C@H](NC(C)=O)C(=O)N[C@@H](CO)C(=O)NCC(=O)N[C@H](C(=O)N[C@@H](CC(N)=O)C(=O)N[C@@H](C)C(=O)N[C@@H](CO)C(=O)N[C@H](C(=O)N[C@H](C(=O)N[C@@H](CC(N)=O)C(=O)N[C@H](C(=O)N[C@@H](CCC(N)=O)C(=O)N[C@@H](CCC(=O)O)C(=O)N[C@@H](CCC(=O)O)C(=O)N[C@H](C(=O)N[C@@H](CCCCN)C(=O)N[C@@H](CCCNC(=N)N)C(=O)N[C@@H](CC(C)C)C(=O)N[C@@H](CC(N)=O)C(=O)N[C@@H](CCC(=O)O)C(=O)N[C@H](C(=O)N[C@@H](C)C(=O)N[C@@H](CCCCN)C(=O)N[C@@H](CCCCN)C(=O)N[C@@H](CC(C)C)C(=O)N[C@@H](CC(N)=O)C(=O)N[C@@H](CCC(=O)O)C(=O)N[C@@H](CO)C(=O)N[C@@H](CC(C)C)C(=O)N[C@H](C(=O)N[C@@H](CC(=O)O)C(=O)N[C@@H](CC(C)C)C(=O)N[C@@H](CCC(N)=O)C(=O)N[C@@H](CCC(=O)O)C(=O)NCC(=O)NCC(=O)NCC(=O)N[C@@H](CO)C(=O)NCC(=O)NCC(=O)NCC(=O)N[C@@H](CSSC[C@H](NC(=O)CNC(=O)CNC(=O)CNC(=O)[C@H](CO)NC(=O)CNC(=O)CNC(=O)CNC(=O)[C@H](CCC(=O)O)NC(=O)[C@H](CCC(N)=O)NC(=O)[C@H](CC(C)C)NC(=O)[C@H](CC(=O)O)NC(=O)[C@@H](NC(=O)[C@H](CC(C)C)NC(=O)[C@H](CO)NC(=O)[C@H](CCC(=O)O)NC(=O)[C@H](CC(N)=O)NC(=O)[C@H](CC(C)C)NC(=O)[C@H](CCCCN)NC(=O)[C@H](CCCCN)NC(=O)[C@H](C)NC(=O)[C@@H](NC(=O)[C@H](CCC(=O)O)NC(=O)[C@H](CC(N)=O)NC(=O)[C@H](CC(C)C)NC(=O)[C@H](CCCNC(=N)N)NC(=O)[C@H](CCCCN)NC(=O)[C@@H](NC(=O)[C@H](CCC(=O)O)NC(=O)[C@H](CCC(=O)O)NC(=O)[C@H](CCC(N)=O)NC(=O)[C@@H](NC(=O)[C@H](CC(N)=O)NC(=O)[C@@H](NC(=O)[C@@H](NC(=O)[C@H](CO)NC(=O)[C@H](C)NC(=O)[C@H](CC(N)=O)NC(=O)[C@@H](NC(=O)CNC(=O)[C@H](CO)NC(=O)[C@@H](NC(C)=O)[C@@H](C)CC)[C@@H](C)CC)C(C)C)C(C)C)[C@@H](C)CC)[C@@H](C)CC)C(C)C)[C@@H](C)CC)C(N)=O)C(N)=O)[C@@H](C)CC)C(C)C)[C@@H](C)CC)[C@@H](C)CC)C(C)C)C(C)C)[C@@H](C)CC  fold change IC50 vs corresponding monomer (SARS-CoV-2 Wuhan; viral replication; VeroE6/TMPRSS2 cells; reference: corresponding monomer): 1.24
O=C(c1ccccc1O)c1[nH]c(Cl)c(Cl)c1-n1c(C(=O)c2ccccc2O)cc(Cl)c1Cl  MIC (Brucella anthropi; ATCC 49687): 32 µM
COC(=O)c1ncn(CCOP(=O)(O)O)c1C(=O)OC  IC50 (Zaire ebolavirus; viral replication, inhibitor; Vero; 72 h): 12 µg/mL
CC(C=CC(O)=C1C(=O)CNC1=O)=CC(C)C1OC2(C)OC(C(=O)C(O)C2(C)O)C1C (centres unmarked)  MIC (Bacillus anthracis; 34F2): > 100 µM
CN[C@@H]1[C@H](O)[C@H](NC)[C@H]2O[C@]3(O)[C@H](O[C@@H]2[C@H]1O)O[C@H](C)C[C@@]3(O)CNCc1ccccc1  inhibition zone diameter (Legionella pneumophila; ATCC 33153; 40 µg per disc, 48 h): 40 mm
Cc1ccc(NS(=O)(=O)c2c(C(=O)N3CCCCCC3)c(C)n(C)c2C)c(Cl)c1  relative infection (Monkeypox virus; qPCR; Vero C1008, wild type; 20 µM, 72 h; reference: untreated): 19.7% and 21.8% and 15%
CC[C@H](C)[C@H](NC(=O)[C@H](CCCCN)NC(=O)[C@H](CCCCN)NC(=O)[C@H](CC(C)C)NC(=O)[C@H](Cc1c[nH]c2ccccc12)NC(=O)CN)C(=O)NCC(=O)N[C@@H](CCCCN)C(=O)N[C@@H](CCCCN)C(=O)N[C@H](C(=O)N[C@@H](CCC(=O)O)C(=O)N[C@@H](CCCNC(=N)N)C(=O)N[C@H](C(=O)NCC(=O)N[C@@H](CCC(N)=O)C(=O)N[C@@H](Cc1c[nH]cn1)C(=O)N[C@H](C(=O)N[C@@H](CCCNC(=N)N)C(=O)N[C@@H](CC(=O)O)C(=O)N[C@@H](C)C(=O)N[C@H](C(=O)N[C@H](C(=O)N[C@@H](CCC(N)=O)C(=O)N[C@H](C(=O)N[C@H](C(=O)NCC(=O)N[C@H](C(=O)N[C@@H](C)C(=O)N[C@@H](CCC(N)=O)C(=O)N[C@@H](CCC(N)=O)C(=O)N[C@@H](C)C(=O)N[C@@H](C)C(=O)N[C@@H](CC(N)=O)C(=O)N[C@H](C(=O)N[C@@H](C)C(=O)N[C@@H](C)C(=O)N[C@H](C(=O)N[C@@H](CC(C)C)C(=O)N[C@@H](CCCCN)C(N)=O)[C@@H](C)O)C(C)C)C(C)C)[C@@H](C)CC)[C@@H](C)O)[C@@H](C)CC)[C@@H](C)O)[C@@H](C)O)C(C)C)[C@@H](C)CC  MIC (Escherichia coli; ATCC 25922, CAMHB with 10% mouse serum; 150 mM NaCl): 1 µg/mL
Cc1ccc(N2CC(N3CCC(C)(O)CC3)C2)cc1C(=O)NC1(c2ccc3c4c(cccc24)C(=O)N3C)CC1  inhibition (SARS-CoV-2; viral replication; Vero C1008, Omicron BA.5; 12.5 µM): 100%
COC(=O)c1ncn(C2OC(COC(C)=O)C(OC(C)=O)C2OC(C)=O)c1C(=O)OC (centres unmarked)  IC50 (Mammarenavirus lassaense; viral replication, inhibitor; Vero; 48 h): 12 µg/mL
CN[C@@H]1[C@H](O)[C@H](NC)[C@H]2O[C@]3(O)[C@H](O[C@@H]2[C@H]1O)O[C@H](C)C[C@H]3NC(=O)Cc1ccc(Cl)cn1  MIC (Bacillus anthracis; microbial growth; STERNE34F2): 25 µg/mL
O=[N+]([O-])c1ccc(-n2nc(-c3ccccc3)cc2-c2ccc(F)cc2)c([N+](=O)[O-])c1  NS1 protein level (Japanese encephalitis virus; western blot; Neuro2a; 5 µM, 72 h): no effect
O=[N+]([O-])c1ccc(C2=[N+]([O-])c3ccccc3N3CCCN=C23)cc1  MIC (Clostridium perfringens): 0.25 to 2 µg/mL
Oc1cc(Br)ccc1Oc1ccccc1  MIC90 (Francisella tularensis; bacterial growth; LVS): 0.004 ± 0.001 µg/mL (≈ 0.0151 µM)
Nc1nc(Nc2ccc(Cl)cc2)nn1S(=O)(=O)c1ccc2ccccc2c1  EC50 (Eastern equine encephalitis virus; viral replication; Huh-7): > 6.2 µM
CN1CCN(C(=O)N[C@@H](Cc2ccccc2)C(=O)N[C@H](/C=C/S(=O)(=O)c2ccccc2)CCc2ccccc2)CC1  IC50 (Tai Forest ebolavirus; viral entry; HEK-293T; pseudovirus): 0.00226 ± 0.0001 µM
[O-][N+]1=C(c2ccc(Cl)cc2)C2=NCCCCN2c2ccccc21  MIC90 (Clostridium perfringens): 32 µg/mL (≈ 98.2 µM)
C[C@@H]1CCCN1CCc1cc2cc(-c3ccc(C#N)cc3)ccc2o1  IC90 (Naegleria fowleri; alamarBlue; ATCC 30808; 48 h, trophozoites): 14.7 ± 4.09 µM
N#Cc1ncn(COCCBr)c1C#N  IC50 (Mammarenavirus lassaense; viral replication, inhibitor; Vero; 48 h): 5 µg/mL
CC(C)CC(C(=O)N1CC2(CC1C#N)C(=O)Nc1ccccc12)N(C)C(=O)c1cc2c(F)cc(F)c(F)c2[nH]1 (centres unmarked)  inhibition (SARS-CoV-2; viral replication, infectious virus; Vero E6; 0.3 µM): 100%
COC(=O)c1ncn(CCO)c1C(=O)OC  IC90 (Mammarenavirus lassaense; viral replication; Vero; 48 h): > 50 µg/mL
COc1ccc(C2=[N+]([O-])c3ccccc3N3CCCN=C23)cc1  MIC50 (Clostridium perfringens; microbial growth): 16 µg/mL (≈ 52.1 µM)

Some of these lines once more:
CN[C@@H]1[C@H](O)[C@H](NC)[C@H]2O[C@]3(O)[C@H](O[C@@H]2[C@H]1O)O[C@H](C)C[C@H]3NC(=O)Cc1ccc(Cl)cn1  MIC (Bacillus anthracis; microbial growth; STERNE34F2): 25 µg/mL
COc1ccc(C2=[N+]([O-])c3ccccc3N3CCCN=C23)cc1  MIC50 (Clostridium perfringens; microbial growth): 16 µg/mL (≈ 52.1 µM)
